Measurements gathered from unrelated publications.
Every numbered part comes from another study and shows a few of its results, in no order.
Chain of UniProt Q8N568 (whole entry, looked up): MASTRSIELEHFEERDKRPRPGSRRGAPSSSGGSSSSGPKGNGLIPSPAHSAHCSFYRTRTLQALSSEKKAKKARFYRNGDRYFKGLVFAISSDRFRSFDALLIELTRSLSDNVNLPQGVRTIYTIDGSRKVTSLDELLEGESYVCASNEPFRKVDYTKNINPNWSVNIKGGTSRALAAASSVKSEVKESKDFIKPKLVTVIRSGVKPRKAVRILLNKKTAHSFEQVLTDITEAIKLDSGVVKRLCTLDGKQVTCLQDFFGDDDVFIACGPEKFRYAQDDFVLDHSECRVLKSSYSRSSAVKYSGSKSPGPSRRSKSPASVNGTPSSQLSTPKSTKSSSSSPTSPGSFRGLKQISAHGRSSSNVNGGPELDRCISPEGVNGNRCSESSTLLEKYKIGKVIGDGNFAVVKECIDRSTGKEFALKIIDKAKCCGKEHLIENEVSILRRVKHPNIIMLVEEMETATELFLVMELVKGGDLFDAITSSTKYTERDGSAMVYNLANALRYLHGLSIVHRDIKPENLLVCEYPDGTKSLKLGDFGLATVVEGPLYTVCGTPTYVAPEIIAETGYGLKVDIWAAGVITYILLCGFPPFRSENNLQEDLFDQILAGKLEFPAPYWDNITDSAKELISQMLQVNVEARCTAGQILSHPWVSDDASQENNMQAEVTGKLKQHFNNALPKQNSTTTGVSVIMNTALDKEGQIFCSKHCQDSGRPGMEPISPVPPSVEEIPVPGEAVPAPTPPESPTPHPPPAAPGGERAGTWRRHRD
Chain of UniProt P29322 (whole entry, looked up): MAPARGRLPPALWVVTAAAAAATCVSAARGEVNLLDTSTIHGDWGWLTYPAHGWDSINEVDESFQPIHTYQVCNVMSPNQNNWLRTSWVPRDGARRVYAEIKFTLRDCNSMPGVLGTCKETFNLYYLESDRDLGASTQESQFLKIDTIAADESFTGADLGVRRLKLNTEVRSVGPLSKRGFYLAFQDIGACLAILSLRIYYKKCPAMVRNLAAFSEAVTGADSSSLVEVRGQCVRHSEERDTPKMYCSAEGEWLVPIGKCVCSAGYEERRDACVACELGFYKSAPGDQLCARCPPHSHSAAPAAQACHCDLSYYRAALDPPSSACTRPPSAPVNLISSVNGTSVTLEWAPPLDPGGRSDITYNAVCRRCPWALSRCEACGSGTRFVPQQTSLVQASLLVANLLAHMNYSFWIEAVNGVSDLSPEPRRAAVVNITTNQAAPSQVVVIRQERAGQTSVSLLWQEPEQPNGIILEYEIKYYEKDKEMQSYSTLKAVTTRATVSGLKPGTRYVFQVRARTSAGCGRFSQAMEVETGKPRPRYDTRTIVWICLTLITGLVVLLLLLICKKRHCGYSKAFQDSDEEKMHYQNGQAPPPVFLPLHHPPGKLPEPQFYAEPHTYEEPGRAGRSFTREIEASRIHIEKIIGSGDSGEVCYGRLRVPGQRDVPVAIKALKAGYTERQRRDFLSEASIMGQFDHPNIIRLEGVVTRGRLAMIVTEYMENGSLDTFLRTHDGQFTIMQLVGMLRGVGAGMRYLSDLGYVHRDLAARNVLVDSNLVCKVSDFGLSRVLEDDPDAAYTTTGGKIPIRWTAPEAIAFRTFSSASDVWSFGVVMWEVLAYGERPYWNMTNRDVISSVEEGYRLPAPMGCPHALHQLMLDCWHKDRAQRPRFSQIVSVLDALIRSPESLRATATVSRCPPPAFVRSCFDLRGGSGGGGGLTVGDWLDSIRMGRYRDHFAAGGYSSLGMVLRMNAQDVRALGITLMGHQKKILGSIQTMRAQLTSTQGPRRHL
Chain of UniProt P52564 (whole entry, looked up): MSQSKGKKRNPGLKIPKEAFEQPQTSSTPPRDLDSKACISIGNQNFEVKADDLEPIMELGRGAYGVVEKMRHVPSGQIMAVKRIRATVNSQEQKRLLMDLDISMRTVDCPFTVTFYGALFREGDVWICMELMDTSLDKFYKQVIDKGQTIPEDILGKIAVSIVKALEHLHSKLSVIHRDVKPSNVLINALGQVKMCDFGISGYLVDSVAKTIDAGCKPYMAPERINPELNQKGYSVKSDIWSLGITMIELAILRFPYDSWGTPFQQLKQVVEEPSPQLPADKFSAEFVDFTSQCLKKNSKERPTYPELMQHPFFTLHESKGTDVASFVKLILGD
Chain of UniProt Q05655 (whole entry, looked up): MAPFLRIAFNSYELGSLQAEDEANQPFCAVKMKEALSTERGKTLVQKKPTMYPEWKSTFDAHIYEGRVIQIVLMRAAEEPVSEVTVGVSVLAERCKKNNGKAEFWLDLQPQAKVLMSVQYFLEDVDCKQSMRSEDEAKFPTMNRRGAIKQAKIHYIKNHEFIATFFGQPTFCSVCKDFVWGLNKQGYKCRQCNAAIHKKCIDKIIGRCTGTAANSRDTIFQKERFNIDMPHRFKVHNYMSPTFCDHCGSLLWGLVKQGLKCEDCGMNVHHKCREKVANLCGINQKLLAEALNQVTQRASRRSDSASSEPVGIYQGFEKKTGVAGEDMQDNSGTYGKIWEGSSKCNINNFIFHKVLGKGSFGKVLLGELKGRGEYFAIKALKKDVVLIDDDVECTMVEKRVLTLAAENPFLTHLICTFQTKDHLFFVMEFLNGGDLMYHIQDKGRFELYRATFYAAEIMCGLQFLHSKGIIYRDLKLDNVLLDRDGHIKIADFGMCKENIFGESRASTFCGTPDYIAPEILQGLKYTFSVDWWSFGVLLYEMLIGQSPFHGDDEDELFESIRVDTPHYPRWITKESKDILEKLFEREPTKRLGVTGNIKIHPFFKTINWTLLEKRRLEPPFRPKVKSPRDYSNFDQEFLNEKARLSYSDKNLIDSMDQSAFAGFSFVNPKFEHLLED
Chain of UniProt Q9H2G2 (whole entry, looked up): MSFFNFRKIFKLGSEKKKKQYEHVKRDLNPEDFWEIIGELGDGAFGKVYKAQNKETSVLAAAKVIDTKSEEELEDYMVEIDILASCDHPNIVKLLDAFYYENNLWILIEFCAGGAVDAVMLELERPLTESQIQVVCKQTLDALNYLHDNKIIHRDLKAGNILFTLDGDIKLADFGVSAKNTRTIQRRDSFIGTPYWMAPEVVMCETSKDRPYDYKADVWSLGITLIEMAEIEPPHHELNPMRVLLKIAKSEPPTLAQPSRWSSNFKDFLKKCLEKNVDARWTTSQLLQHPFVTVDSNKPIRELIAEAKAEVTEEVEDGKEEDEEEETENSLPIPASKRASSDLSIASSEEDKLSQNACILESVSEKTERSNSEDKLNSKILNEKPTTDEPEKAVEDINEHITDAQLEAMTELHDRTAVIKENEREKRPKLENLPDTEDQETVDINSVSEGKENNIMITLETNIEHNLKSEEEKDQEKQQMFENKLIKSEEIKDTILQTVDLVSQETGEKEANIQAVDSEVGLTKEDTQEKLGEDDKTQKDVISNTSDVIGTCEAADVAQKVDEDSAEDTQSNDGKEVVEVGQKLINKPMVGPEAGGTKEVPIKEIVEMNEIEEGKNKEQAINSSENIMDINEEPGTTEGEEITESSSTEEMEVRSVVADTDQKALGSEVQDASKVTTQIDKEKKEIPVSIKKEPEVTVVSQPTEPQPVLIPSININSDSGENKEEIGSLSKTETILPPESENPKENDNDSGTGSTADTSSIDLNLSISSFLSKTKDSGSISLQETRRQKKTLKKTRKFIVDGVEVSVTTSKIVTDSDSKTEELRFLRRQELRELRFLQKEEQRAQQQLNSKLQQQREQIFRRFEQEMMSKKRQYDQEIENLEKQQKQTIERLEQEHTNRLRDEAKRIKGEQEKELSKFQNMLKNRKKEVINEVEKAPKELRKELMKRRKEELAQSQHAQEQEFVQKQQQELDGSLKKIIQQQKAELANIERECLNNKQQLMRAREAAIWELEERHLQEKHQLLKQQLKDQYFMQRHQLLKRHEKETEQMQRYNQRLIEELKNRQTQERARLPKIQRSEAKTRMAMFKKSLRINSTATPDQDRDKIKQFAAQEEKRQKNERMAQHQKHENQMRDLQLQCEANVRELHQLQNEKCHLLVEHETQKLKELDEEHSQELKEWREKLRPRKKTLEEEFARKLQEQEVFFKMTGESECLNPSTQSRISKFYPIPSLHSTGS

Block 1
SMILES: C[C@H]1CC[C@H](n2c3cnccc3c3cnc(Nc4ccc5c(n4)CCN(C(=O)CO)C5)nc32)CC1
Observed: cell-free assay
Tested at: 1 µM
It gave 80% for remaining signal (Phosphatidylinositol 4,5-bisphosphate 3-kinase catalytic subunit alpha isoform (PIK3CA, Homo sapiens, UniProt P42336, I800L)).
The remaining signal was 100% (Serine/threonine-protein kinase DCLK2 (DCLK2, Homo sapiens, UniProt Q8N568)).
It gave 29% for remaining signal (Phosphatidylinositol 4-kinase beta (PI4KB, Homo sapiens, UniProt Q9UBF8)).
The remaining signal was 100% (Myosin light chain kinase, smooth muscle (MYLK, Homo sapiens, UniProt Q15746)).
For Dual specificity mitogen-activated protein kinase kinase 6 (MAP2K6, Homo sapiens, UniProt P52564): remaining signal read 22%.
For Protein kinase C delta type (PRKCD, Homo sapiens, UniProt Q05655): remaining signal read 83%.

Block 2
SMILES: COc1ccc2c(O[C@@H]3C[C@H]4C(=O)N[C@]5(C(=O)O)CC5/C=C\CCCCC[C@H](NC(=O)OC5CCCC5)C(=O)N4C3)cc(-c3csc(NC(=O)C(C)C)n3)nc2c1C (some centres unmarked)
Tested at: 1 µM
Relative to: DMSO
colorectal tumour organoids — viability: 104%.
For sample I colorectal tumour organoid; replicate 1: viability read 85.6%.
For sample C colorectal tumour organoid; replicate 2: viability read 108%.
The viability was 125% (sample BA colorectal tumour organoid).
For sample C colorectal tumour organoid; replicate 1: viability read 109%.
The viability was 110% (sample B colorectal tumour organoid; replicate 2).
It gave 78.3% for viability (sample I colorectal tumour organoid; replicate 2).
For sample B colorectal tumour organoid; replicate 1: viability read 98.1%.

Block 3
Target: Interleukin-1 receptor-associated kinase 1 (IRAK1, Homo sapiens, UniProt P51617)
Chain of UniProt P51617 (whole entry, looked up): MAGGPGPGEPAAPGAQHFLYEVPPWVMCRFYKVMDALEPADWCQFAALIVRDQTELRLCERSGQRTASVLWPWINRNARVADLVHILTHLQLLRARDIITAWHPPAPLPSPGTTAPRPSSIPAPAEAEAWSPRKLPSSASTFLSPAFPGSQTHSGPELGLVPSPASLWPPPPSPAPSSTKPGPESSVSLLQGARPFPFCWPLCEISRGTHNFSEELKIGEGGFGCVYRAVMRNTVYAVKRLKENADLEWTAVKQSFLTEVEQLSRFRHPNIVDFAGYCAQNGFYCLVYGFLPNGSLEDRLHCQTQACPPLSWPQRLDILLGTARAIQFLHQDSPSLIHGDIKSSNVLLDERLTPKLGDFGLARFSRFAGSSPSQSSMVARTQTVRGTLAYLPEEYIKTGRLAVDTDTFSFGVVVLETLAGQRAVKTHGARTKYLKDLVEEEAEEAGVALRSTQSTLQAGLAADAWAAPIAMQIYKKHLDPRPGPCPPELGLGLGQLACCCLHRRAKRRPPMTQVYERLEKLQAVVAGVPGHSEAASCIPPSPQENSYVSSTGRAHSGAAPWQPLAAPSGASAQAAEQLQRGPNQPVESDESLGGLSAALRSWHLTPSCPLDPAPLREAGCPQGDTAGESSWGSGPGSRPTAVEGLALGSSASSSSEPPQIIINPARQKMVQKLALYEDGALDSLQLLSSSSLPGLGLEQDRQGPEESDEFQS
Observed: enzyme activity
Mode: inhibitor
Tested at: 0.5 µM
Relative to: control
For `O=S(=O)(c1cccc2cnccc12)N1CCCNCC1`, the remaining activity was 86.2%.
`COc1ccc(CNC(=O)Nc2ncc([N+](=O)[O-])s2)cc1` gave a remaining activity of 108%.
For `Nc1ncnc2n[nH]c(Nc3ccc(F)cc3)c12`, the remaining activity was 91.8%.
For `CN(C)c1ccc(C=C2C(=O)Nc3ccccc32)cc1`, the remaining activity was 102%.
For `COc1cc2ncnc(Nc3ccc(F)c(Cl)c3)c2cc1OCCCN1CCOCC1`, the remaining activity was 57.6%.
The remaining activity of `Oc1ccc(-c2nc(-c3ccncc3)c(-c3ccc(F)cc3)[nH]2)cc1` is reported as 123%.
The remaining activity of `O=C(Nc1cccc(Nc2cc(Nc3cccc(C(F)(F)F)c3)ncn2)c1)C1CC1` is reported as 111%.
`Cc1ccc(NC(=O)c2ccc(CN3CCN(C)CC3)cc2)cc1Nc1nc(-c2cccnc2)cs1` has a remaining activity of 104%.
`Nc1[nH]nc2nc3ccccc3nc12` has a remaining activity of 88.9%.
With `O=C1NC(=O)C(c2cn(CCCn3ccnc3)c3ccccc23)=C1Nc1ccccc1` the remaining activity was 118%.
`COc1cc2ncnc(Nc3ccc(Oc4ccccc4)cc3)c2cc1OC` gave a remaining activity of 122%.
`N#CC(C#N)=C(N)/C(C#N)=C/c1ccc(O)cc1` gave a remaining activity of 123%.
The remaining activity of `O=C1NC(=O)C(c2cn(CCCO)c3ncccc23)=C1c1cnccn1` is reported as 76.6%.
The remaining activity of `COc1ccc(OC)c2c(=S)c3ccccc3[nH]c12` is reported as 91.1%.
With `Cc1cccc(-c2[nH]c(C(C)(C)C)nc2-c2ccc3c(c2)OCO3)n1` the remaining activity was 118%.
`CC(C)[C@H](CO)Nc1nc(Nc2cc(N)cc(Cl)c2)c2ncn(C(C)C)c2n1` has a remaining activity of 97.1%.

Block 4
SMILES: CC(C)S(=O)(=O)c1ccc2nccc(Nc3ccc4sc(C5CCCC5)nc4c3)c2c1.Cl
Observed: kinase activity
Mode: inhibitor
Tested at: 1 µM
For Protein kinase C iota type (PRKCI, Homo sapiens, UniProt P41743): remaining activity read 105%.
The remaining activity was 124% (Eukaryotic translation initiation factor 2-alpha kinase 1 (EIF2AK1, Homo sapiens, UniProt Q9BQI3)).
For Mitogen-activated protein kinase kinase kinase kinase 1 (MAP4K1, Homo sapiens, UniProt Q92918): remaining activity read 99%.
STE20-like serine/threonine-protein kinase (SLK, Homo sapiens, UniProt Q9H2G2) — remaining activity: 93%.
The remaining activity was 99% (Ephrin type-A receptor 8 (EPHA8, Homo sapiens, UniProt P29322)).
